Measured values gathered from unrelated publications.
Lines come from different studies, so protocols differ. Substitutions count along the parent as printed.
cas1/cas2 1-305; 1-94: cas1/cas2 1-305; 1-94 (Escherichia coli)
GAL4 BD/SNF1 residues 1-53: GAL4 BD/SNF1 residues 1-53 (Saccharomyces cerevisiae)
FGFR3: FGFR3 23-375 (Homo sapiens, UniProt P22607)
NAC transcription factor full length assumed: NAC transcription factor full length assumed (Triticum aestivum, UniProt A0A7G7XYH6)
DNMT1: DNMT1 1-1616 (Homo sapiens, UniProt P26358)
Chain of UniProt P26358 (whole entry, looked up): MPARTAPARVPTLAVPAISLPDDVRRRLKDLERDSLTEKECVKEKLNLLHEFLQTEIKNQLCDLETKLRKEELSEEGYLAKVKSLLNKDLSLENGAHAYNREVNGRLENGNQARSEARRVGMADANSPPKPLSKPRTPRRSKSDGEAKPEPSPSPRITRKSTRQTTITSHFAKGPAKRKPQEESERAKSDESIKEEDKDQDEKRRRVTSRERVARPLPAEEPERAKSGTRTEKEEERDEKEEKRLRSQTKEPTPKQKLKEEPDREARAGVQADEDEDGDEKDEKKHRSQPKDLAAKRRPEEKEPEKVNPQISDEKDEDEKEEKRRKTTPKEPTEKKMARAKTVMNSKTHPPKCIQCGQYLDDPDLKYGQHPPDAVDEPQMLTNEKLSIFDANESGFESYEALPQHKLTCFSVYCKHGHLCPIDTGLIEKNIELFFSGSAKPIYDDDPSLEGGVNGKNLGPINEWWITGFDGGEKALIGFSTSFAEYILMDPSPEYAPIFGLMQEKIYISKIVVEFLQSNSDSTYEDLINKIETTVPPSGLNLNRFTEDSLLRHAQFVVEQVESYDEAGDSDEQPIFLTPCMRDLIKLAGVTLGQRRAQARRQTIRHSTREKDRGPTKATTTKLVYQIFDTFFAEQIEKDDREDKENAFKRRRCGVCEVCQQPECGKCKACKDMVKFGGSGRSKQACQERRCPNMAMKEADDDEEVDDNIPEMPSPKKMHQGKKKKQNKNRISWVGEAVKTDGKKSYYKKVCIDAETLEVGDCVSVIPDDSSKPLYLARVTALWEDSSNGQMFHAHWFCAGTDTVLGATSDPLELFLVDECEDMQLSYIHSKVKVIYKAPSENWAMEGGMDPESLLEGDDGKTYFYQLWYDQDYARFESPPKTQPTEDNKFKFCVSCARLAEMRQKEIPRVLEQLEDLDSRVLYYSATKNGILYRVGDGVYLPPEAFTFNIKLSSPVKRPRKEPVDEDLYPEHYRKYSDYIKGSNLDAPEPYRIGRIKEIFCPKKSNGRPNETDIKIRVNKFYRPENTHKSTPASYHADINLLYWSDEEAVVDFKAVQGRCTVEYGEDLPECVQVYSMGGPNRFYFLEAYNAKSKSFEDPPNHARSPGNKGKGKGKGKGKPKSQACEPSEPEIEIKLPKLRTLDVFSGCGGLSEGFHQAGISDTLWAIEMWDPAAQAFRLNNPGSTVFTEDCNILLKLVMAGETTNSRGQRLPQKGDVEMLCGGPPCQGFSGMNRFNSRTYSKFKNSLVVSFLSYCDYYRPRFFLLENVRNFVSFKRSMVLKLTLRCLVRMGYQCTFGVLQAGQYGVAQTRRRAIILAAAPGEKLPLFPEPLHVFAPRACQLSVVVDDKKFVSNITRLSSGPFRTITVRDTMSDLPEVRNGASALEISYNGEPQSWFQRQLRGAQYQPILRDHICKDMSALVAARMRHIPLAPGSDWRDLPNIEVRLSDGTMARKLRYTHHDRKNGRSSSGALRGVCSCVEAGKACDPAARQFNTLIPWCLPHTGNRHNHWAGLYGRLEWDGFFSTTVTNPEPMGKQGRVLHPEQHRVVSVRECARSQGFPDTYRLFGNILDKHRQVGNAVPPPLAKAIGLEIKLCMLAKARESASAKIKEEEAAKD
T1: cas1/cas2 1-305; 1-94 (Escherichia coli); chain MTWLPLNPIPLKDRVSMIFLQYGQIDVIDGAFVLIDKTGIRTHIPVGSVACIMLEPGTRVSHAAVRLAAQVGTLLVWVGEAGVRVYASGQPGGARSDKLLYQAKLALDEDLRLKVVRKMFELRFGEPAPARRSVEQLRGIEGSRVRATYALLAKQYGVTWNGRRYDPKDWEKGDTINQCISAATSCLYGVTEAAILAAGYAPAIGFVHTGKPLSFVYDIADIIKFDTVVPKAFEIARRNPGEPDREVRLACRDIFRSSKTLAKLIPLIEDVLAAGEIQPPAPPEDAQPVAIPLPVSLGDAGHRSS; chain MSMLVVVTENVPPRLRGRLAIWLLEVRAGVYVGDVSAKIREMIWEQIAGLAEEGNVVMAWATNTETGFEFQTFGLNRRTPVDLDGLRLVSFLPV
P1: SNF1 residues 54-391 (Saccharomyces cerevisiae); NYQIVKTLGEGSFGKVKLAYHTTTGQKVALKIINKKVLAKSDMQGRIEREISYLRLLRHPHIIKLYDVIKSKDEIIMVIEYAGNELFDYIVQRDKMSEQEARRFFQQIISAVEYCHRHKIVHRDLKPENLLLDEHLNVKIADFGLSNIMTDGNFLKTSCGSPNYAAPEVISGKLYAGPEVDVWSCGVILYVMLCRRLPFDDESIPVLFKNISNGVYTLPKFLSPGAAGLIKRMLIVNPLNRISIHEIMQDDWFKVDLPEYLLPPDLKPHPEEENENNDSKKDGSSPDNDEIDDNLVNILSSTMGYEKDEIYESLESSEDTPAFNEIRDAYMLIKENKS; partner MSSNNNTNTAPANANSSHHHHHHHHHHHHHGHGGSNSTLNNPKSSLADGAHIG
P2: APOBEC3G/EYFP (Homo sapiens); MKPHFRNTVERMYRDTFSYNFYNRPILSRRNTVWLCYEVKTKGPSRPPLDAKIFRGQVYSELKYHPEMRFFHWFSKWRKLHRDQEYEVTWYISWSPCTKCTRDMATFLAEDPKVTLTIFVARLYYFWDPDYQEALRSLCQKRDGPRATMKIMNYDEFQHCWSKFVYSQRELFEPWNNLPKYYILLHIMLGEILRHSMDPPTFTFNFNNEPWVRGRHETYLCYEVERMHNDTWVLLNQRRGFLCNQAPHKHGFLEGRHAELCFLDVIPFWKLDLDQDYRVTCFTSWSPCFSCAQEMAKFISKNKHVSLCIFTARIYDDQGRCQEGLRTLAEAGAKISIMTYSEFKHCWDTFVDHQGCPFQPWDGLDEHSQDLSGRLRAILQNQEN; partner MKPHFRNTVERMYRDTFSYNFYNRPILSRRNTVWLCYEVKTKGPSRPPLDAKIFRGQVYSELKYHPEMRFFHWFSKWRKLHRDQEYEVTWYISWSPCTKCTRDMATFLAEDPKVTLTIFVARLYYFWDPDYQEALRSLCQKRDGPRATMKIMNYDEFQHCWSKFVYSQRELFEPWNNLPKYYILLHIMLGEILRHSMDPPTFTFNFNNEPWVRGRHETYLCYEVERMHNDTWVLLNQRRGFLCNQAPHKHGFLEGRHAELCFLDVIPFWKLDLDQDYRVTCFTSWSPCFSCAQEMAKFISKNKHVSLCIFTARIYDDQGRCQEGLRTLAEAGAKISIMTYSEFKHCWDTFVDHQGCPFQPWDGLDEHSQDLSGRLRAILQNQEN
P3: SFI1 residues 1-296 (Saccharomyces cerevisiae); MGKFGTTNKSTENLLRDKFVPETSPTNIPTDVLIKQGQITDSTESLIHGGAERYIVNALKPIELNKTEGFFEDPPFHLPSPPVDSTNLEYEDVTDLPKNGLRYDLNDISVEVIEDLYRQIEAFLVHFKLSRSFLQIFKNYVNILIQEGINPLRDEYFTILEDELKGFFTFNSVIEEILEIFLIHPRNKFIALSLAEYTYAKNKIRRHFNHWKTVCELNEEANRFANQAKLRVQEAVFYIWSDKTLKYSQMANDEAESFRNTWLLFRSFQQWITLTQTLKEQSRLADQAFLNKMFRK
P4: Fgfr1 (Mus musculus); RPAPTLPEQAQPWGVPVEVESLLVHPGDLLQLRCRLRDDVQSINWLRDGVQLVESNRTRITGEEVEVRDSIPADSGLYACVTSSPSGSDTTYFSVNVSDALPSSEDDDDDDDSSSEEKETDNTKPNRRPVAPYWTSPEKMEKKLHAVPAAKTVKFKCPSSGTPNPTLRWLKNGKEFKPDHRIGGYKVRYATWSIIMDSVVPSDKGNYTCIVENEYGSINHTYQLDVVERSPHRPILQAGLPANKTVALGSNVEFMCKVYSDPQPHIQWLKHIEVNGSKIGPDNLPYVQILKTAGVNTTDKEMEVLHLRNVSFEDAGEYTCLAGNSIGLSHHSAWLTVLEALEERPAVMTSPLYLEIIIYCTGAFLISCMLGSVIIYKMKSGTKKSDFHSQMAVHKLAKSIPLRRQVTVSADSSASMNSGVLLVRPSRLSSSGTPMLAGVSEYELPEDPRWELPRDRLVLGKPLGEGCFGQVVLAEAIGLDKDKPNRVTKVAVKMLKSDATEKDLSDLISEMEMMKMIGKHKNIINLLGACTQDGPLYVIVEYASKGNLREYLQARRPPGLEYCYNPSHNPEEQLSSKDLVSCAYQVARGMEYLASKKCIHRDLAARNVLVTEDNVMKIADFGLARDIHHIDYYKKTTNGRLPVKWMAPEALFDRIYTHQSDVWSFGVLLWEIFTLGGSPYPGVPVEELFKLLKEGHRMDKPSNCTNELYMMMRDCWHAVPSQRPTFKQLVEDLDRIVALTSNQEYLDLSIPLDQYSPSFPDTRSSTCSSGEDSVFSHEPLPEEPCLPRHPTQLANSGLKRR
Chain of UniProt P0AE01 (whole entry, looked up): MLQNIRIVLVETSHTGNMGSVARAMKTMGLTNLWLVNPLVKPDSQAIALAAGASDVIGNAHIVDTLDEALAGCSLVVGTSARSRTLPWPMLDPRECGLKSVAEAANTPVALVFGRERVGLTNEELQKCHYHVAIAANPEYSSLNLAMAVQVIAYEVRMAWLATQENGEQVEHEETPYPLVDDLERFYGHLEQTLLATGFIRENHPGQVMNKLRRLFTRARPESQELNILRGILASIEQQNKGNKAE
Chain of UniProt P94426 (whole entry, looked up): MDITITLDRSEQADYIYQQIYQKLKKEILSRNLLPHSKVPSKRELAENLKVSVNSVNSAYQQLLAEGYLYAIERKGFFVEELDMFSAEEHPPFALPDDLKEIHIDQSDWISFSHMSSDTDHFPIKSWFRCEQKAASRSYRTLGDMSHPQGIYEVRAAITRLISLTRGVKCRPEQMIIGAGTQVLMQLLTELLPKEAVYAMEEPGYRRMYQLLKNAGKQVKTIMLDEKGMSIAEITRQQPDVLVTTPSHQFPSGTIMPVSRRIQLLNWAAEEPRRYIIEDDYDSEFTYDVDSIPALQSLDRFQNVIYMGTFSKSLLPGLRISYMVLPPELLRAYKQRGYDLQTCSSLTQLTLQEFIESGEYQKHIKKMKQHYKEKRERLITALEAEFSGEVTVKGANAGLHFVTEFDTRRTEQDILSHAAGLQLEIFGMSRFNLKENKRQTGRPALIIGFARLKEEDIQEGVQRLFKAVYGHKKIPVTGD
Chain of UniProt Q9NR56 (whole entry, unmodified, looked up): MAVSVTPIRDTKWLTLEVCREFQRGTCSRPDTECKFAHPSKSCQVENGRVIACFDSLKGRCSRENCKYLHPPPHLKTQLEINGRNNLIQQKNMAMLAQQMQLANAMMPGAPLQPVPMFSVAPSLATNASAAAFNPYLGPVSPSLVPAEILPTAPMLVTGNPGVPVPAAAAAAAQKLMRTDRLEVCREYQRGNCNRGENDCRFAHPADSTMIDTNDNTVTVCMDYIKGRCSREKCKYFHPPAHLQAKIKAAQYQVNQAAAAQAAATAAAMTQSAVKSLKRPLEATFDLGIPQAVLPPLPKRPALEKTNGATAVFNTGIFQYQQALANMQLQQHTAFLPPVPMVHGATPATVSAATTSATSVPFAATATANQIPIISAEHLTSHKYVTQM

Molecule	target or system	assay	system	setting	how to read	endpoint	result
DNA 1 ATTTCAGCTACTCCGATGGCCCATATGCGGATC / DNA 2 GCATATGGGCCATCGGAGTAGCT (dsDNA)	T1, cas1/cas2 1-305; 1-94 (Escherichia coli)	EMSA	double-stranded DNA	binary complex, partial dissociation	–	binding	binds
P1 T157E	GAL4 BD/SNF1 residues 1-53	yeast two-hybrid	–	read off a plot	baseline: NTD/CTD on glucose, higher = stronger interaction	relative interaction	150%
DNA 1 ATTTCAGCTACTCCGATGGCCCATATGCGGATC / DNA 2 CTAGGGCATATGGGCCATCGGAGTAGC (dsDNA)	T1, cas1/cas2 1-305; 1-94 (Escherichia coli)	EMSA	double-stranded DNA	binary complex, partial dissociation	–	binding	binds
GTATACCTGCAGCTGAGGCGAGCCGTTGGTGTGGATGGCAGGGGCAGGATTCGACTCTAGAGCGCA (ssDNA; stem-loop)	FGFR3	EMSA	single-stranded DNA	added: Mg2+ 5 mM	–	binding	no binding
GGGAGUGUGUACGAGGCAUUAGGCCGCCGAUGGUUUUGUGGCCGUUUGAGGUUCCUACGGCGGCUU (structured RNA; 2'-fluoro C/U, 3' inverted dT)	Fgfr3 21-369 (Mus musculus, UniProt Q61851)	bead flow cytometry	folded RNA	100 nM	–	binding	binds
TATATGTTGTTAATATTGACAAGAAACAAGCTGCT (dsDNA)	NAC transcription factor full length assumed	EMSA	double-stranded DNA, one strand shown	–	–	binding	binds
P2 Y125A	APOBEC3G Renilla luciferase fusion (Homo sapiens)	BRET	293T	read off a plot	baseline: unchanged protein, higher = more binding	relative binding	0.35
CCTTCTGATACCATCAAAAAGTTATAATTGGTACTTTTCATCATACCAAAGAG (dsDNA)	gabR full length assumed (Bacillus subtilis, UniProt P94426)	SEC-MALLS	double-stranded DNA, one strand shown	without GABA	–	binding	binds
CGCGGGGUGGAGCAGCCUGGUAGCUCGUCGGGCUCAUAACCCGAAGAUCGUCGGUUCAAAUCCGGCCCCCGCAACCA (tRNA (Escherichia coli); cloverleaf, unmodified)	trmJ 1-170 (Escherichia coli, UniProt P0AE01)	EMSA	folded RNA	Mg2+ 5 mM, added: sinefungin 500 µM	–	binding	no binding
P3 S10D T11D S42D T43D S45D	SPC42 fragment (Saccharomyces cerevisiae)	yeast two-hybrid	–	read off a plot, added: Cdc31	baseline: unchanged protein, higher = stronger interaction	relative interaction	0.3
DNA 1 CCACTGCTCACGTACAGAGCTGT / DNA 2 CAGCTCTGTACGTGAGCAGTGGA (dsDNA; 23 bp duplex)	TDG 111-308 N140A (Homo sapiens, UniProt Q13569)	EMSA	double-stranded DNA	–	–	binding	no binding
P1 T157A	GAL4 BD/SNF1 residues 1-53	yeast two-hybrid	–	read off a plot	baseline: NTD/CTD on glucose, higher = stronger interaction	relative interaction	2%
CCUGUCUCGCUUUUCCCCUCCGCUGCGGCCAC (ssRNA (Homo sapiens); hairpin)	MBNL1 1-92 (Homo sapiens, UniProt Q9NR56)	NMR titration	folded RNA	–	–	binding	binds
TATATGTTGTTAATATTGACAAGACCAAAGCTGCT (dsDNA)	NAC transcription factor full length assumed	competition EMSA	double-stranded DNA, one strand shown	–	–	binding	no binding
P4 L402A V408A Y442F Y745F Y755F	PTK2 (Mus musculus)	proximity ligation assay	embryo sections	read off a plot	higher = more proximity	signal	85 puncta
CCGCCGAUGGUUUUGUGGCCGUUUGAGGUUCCUACGGCGG (structured RNA; hairpin, 2'-fluoro C/U, 3' inverted dT)	FGFR3	bead flow cytometry	folded RNA	100 nM	–	binding	binds
TGAGCGTGCGTAGCGTGCGTAA (ssDNA; single strand, non-G4)	DNMT1	ELISA	single-stranded DNA	–	–	binding	no binding
CCUCCGCUGC (ssRNA (Homo sapiens))	MBNL1 1-92 F36A (Homo sapiens, UniProt Q9NR56)	NMR titration	RNA	–	–	binding	binds
AGTTGCGTTCGCGTTAGGAAGGTTGCGTTAGCGTTGCTG (ssDNA; single strand, non-G4)	DNMT1	ELISA	single-stranded DNA	–	–	binding	no binding
ATTTCTCCAAGTTTCTAGACAAGTCTCTCA (dsDNA)	Heat stress transcription factor 1-340 (Actinidia chinensis, UniProt A0A2R6Q325)	EMSA	double-stranded DNA, one strand shown	–	–	binding	binds
